Measured values from different studies.
Numbered parts are unrelated; each lists some results of a single study.
UniProt Q9LQE8, sequence (whole entry, looked up): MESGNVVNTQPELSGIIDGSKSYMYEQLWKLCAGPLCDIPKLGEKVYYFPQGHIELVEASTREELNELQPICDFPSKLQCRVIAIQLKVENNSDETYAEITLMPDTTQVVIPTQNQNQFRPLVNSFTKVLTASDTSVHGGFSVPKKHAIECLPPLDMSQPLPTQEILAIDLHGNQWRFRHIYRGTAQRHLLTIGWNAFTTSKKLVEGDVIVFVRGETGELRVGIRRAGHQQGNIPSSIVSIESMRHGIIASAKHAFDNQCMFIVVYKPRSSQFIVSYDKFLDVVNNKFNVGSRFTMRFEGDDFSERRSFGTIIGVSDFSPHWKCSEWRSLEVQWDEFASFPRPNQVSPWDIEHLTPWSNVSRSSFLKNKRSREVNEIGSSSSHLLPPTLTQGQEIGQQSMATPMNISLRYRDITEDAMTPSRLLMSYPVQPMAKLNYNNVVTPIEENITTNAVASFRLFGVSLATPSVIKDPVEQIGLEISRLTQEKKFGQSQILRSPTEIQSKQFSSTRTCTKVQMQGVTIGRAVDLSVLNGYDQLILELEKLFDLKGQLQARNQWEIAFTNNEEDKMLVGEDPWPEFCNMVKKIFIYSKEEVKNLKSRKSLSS
UniProt Q9C5X0, sequence (whole entry, looked up): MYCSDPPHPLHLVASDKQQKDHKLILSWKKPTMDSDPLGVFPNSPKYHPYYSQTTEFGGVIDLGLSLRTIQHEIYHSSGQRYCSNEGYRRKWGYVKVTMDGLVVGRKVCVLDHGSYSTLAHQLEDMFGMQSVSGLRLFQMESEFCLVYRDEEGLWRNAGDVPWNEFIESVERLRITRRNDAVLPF
UniProt O24408, sequence (whole entry, looked up): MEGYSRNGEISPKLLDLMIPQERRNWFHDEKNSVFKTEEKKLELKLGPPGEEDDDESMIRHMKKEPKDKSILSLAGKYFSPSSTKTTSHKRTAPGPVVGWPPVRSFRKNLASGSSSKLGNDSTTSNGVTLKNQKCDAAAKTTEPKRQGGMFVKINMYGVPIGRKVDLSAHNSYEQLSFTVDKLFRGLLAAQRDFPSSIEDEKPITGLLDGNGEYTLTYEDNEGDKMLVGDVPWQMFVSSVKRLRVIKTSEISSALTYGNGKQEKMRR
UniProt Q38826, sequence (whole entry, looked up): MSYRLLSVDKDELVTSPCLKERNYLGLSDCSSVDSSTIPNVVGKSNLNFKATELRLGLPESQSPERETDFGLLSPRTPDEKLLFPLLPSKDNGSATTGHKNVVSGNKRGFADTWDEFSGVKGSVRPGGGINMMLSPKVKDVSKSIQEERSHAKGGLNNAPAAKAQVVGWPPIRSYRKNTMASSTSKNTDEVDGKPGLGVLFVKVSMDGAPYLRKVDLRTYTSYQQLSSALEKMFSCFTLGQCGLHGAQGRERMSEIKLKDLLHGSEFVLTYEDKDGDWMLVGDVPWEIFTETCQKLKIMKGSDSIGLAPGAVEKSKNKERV
UniProt Q9ZTX8, sequence (whole entry, looked up): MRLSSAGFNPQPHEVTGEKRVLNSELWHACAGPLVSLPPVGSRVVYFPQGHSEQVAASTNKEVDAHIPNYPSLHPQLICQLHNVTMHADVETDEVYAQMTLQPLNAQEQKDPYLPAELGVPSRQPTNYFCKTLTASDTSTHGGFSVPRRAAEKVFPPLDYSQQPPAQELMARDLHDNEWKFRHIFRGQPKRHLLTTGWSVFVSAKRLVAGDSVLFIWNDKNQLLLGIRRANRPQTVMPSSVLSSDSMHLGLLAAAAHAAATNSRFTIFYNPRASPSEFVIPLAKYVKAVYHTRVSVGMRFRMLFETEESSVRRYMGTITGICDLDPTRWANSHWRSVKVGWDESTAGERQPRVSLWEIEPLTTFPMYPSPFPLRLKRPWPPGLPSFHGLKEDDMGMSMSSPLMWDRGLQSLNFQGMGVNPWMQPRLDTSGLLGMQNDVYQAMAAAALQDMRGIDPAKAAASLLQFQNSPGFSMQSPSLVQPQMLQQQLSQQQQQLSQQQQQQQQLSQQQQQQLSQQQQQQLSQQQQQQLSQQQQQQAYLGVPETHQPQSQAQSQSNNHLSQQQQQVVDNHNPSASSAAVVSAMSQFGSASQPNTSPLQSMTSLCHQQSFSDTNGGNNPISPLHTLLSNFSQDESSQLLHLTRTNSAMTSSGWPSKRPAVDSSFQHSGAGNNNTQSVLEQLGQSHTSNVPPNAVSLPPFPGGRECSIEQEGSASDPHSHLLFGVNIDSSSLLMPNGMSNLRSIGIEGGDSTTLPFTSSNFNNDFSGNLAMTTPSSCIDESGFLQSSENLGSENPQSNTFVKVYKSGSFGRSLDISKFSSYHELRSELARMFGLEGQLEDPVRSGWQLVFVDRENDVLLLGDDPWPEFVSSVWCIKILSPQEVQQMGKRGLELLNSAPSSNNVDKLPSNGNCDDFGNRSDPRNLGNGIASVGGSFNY
UniProt Q9ZPY6, sequence (whole entry, looked up): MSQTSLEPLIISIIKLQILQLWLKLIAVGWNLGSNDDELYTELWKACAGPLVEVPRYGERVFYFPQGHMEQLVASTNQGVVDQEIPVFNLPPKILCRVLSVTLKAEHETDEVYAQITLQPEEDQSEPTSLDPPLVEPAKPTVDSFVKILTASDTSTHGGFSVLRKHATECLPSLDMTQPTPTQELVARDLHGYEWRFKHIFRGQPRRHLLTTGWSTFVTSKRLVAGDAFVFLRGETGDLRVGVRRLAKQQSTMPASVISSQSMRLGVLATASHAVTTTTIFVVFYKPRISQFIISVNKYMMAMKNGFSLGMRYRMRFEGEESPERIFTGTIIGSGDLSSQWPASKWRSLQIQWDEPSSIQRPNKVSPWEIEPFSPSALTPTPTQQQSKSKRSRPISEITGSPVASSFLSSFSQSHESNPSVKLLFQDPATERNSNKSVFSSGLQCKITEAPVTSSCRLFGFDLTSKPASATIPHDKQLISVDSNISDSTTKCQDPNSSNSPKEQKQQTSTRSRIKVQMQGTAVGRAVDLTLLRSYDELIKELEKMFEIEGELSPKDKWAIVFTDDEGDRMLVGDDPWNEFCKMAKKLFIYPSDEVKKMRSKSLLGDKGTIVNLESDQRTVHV

Study 1
Target: RNA binding protein fox-1 homolog 2, RRM domain, GST-SBP tag (RBFOX2, Homo sapiens, UniProt O43251-10, residues 100-194)
Method: RNA Bind-n-Seq
Molecule type: RNA
Matrix: in vitro
Tested at: 365 nM
Notes: natural RNA segment, single round, ends assumed
Reference: no-protein control
Reading: higher = stronger binding
Quantity: RBNS enrichment (R)
Constant ends, left off below: GGGAGUUCUACAGUCCGACGAUC … UGGAAUUCUCGGGUGCCAA
Oligonucleotide = UAACUUUGAAGUCUUGUAUGAUUUAAUUAUGUUUAAUGAGUUAGAAUGGUUUGCUUUGUAUUACAGAACCACUUAUUUGUAUACUGCAGACAGCUCUAGAGUGGCACUGG; result = 0.897
Oligonucleotide = UGUAGAUUUUCUACUUGAAUAUUUUUAUGUUGUAGGAACCUCAGGAGGUCAGUGUUUACUGUUUUAUAUAUGCCUUCUUUUUCCUGUUUGAGCUUCUCUCUUUGAAGGAU; result = 0.474
Oligonucleotide = GCAUGGCUUUGUAGUUUGCAUUUAACCUGGGGAUCUAUGCAUCCUGUCAAGAGGGUGGGUCCCCAUCCCCGUGUGUGGAAAAGAGACAGUGUGGCUUGCUGCCAGGCUCA; result = 9.23
Oligonucleotide = UACCAAGAUAGGGAAAGAAAGAAAUAAUGACUGCCAGCCCUGGACCUCAGAAUUCUCAGGUAUGGAAACACUCAAGAGCUGCCUGGUAUGAAGCAAAGAGGAUCCUGGGC; result = 1.07
Oligonucleotide = GGUUCUUGUCAGCUAGGUUUAAAGGUAUUUCACUGAGAACGCAAAUUCUGUCUUUUCUUGAUUUCGGCUGUUUUCAGUAUUUUGGAGGUAUACAUUUACUUAAAUUCAGU; result = 0.41
Oligonucleotide = UAGGGCUGAAAAGAAUGACCUACGUUUCUGUAUACAGCUGUGUUGCUUUUGAUGUUGUGUUACUGUACACAGAAGUGUGUGCACUGAGGCUCUGCGUGUGGUCCGUAUGG; result = 1.35
Oligonucleotide = CCCUAGGCUCAGGUAGCUUGUUCCUUGGGGUGGGAAGGGAGCUAGGGAAGGGUCAAAGUGUGGACAUUGAGAAGAGGAGAGGAAAGGAGCAAGAGCUGAACUCCUGCUGC; result = 0.971
Oligonucleotide = UGGGGAAGAGUGAAAGAUAUAAAGUAACCUAAUUAAAUGUAUGGAAUUGCUAUUUUUAUAGCUGAUAUAGUUACACCUCAAGCCCCUCAGGGGUAACAACUAACAAACAC; result = 1.06

Study 2
Molecule: B1 (IAA3)
Method: two-hybrid
Reading: higher = firmer interaction
Quantity: positive tests
B1: IAA3 (Arabidopsis thaliana, UniProt Q38822); chain MDEFVNLKETELRLGLPGTDNVCEAKERVSCCNNNNKRVLSTDTEKEIESSSRKTETSPPRKAQIVGWPPVRSYRKNNIQSKKNESEHEGQGIYVKVSMDGAPYLRKIDLSCYKGYSELLKALEVMFKFSVGEYFERDGYKGSDFVPTYEDKDGDWMLIGDVPWEMFICTCKRLRIMKGSEAKGLGCGV
partner = IAA34 (Arabidopsis thaliana, UniProt Q9C5X0); reference = out of 2 tests; result = 2
partner = ARF14 497-605 (Arabidopsis thaliana, UniProt Q9LQE8); reference = out of 4 tests; result = 0
partner = IAA8 (Arabidopsis thaliana, UniProt Q38826); reference = out of 4 tests; result = 4
partner = ARF11 500-622 (Arabidopsis thaliana, UniProt Q9ZPY6); reference = out of 4 tests; result = 0
partner = IAA18 (Arabidopsis thaliana, UniProt O24408); reference = out of 2 tests; result = 2
partner = ARF6 790-935 (Arabidopsis thaliana, UniProt Q9ZTX8); reference = out of 4 tests; result = 3

Study 3
Target: Hepatocyte nuclear factor 3-beta, forkhead domain (FOXA2, Homo sapiens, UniProt Q9Y261, residues 142-269)
Method: protein-binding microarray
Molecule type: double-stranded DNA, one strand shown
Matrix: in vitro
Tested at: not given
Notes: k-mer, scored over probes, only values ≥0.25
Reading: higher = stronger binding
Quantity: E-score
Target sequence (chain): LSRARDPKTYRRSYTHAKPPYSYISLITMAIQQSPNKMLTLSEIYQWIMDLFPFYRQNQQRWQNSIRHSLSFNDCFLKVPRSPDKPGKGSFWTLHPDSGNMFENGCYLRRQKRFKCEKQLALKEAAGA
Oligonucleotide = AAATAGTA; result = 0.324
Oligonucleotide = TTAATCAA; result = 0.32
Oligonucleotide = TATACGAA; result = 0.276
Oligonucleotide = TATATACA; result = 0.401
Oligonucleotide = ATAGGTAA; result = 0.268
Oligonucleotide = ATATAACG; result = 0.316
Oligonucleotide = ATAAGACG; result = 0.307
Oligonucleotide = ATAGGTTA; result = 0.27
Oligonucleotide = ATACATTA; result = 0.281
Oligonucleotide = AATATACA; result = 0.421
Oligonucleotide = AACAATGC; result = 0.266
Oligonucleotide = ATCATAAT; result = 0.33
Oligonucleotide = ATGTACAT; result = 0.261
Oligonucleotide = ACATCTAC; result = 0.312
Oligonucleotide = GATAACAA; result = 0.261
Oligonucleotide = AACACGTA; result = 0.271

Study 4
Target: Sal-like protein 4, full length isoform B (SALL4, Homo sapiens, UniProt Q9UJQ4-2, residues 1-616)
Method: universal PBM
Molecule type: double-stranded DNA, one strand shown
Matrix: in vitro
Tested at: not given
Notes: 8-mer, flanks averaged, mean of replicates
Reading: higher = stronger binding
Quantity: E-score
Oligonucleotide = GGCTACTA; result = 0.102
Oligonucleotide = AGACGAAT; result = 0.197
Oligonucleotide = CAATTTGA; result = 0.256
Oligonucleotide = ACGGATTC; result = -0.0509
Oligonucleotide = ATTTCACG; result = 0.0941
Oligonucleotide = AATAAATG; result = 0.362
Oligonucleotide = GCTCTTCA; result = -0.209
Oligonucleotide = ACAGCATC; result = -0.00729
Oligonucleotide = CCATTCGA; result = -0.00786
Oligonucleotide = GGTTCGTA; result = -0.0637
Oligonucleotide = GTGATTCA; result = -0.053
Oligonucleotide = GGGGATGA; result = -0.208
Oligonucleotide = TGCGCAAA; result = 0.139
Oligonucleotide = AATCGCAC; result = 0.0402
Oligonucleotide = TAGTGCAA; result = 0.236
Oligonucleotide = CGAGATCG; result = -0.221
Oligonucleotide = GAGTACCC; result = -0.249
Oligonucleotide = CCTGATTA; result = 0.14
Oligonucleotide = ACAGCTGT; result = -0.176
Oligonucleotide = CCTAAGCG; result = -0.145
Oligonucleotide = ACGGGATA; result = -0.0235
Oligonucleotide = CTTGATGC; result = -0.0807
Oligonucleotide = AAAACTGC; result = 0.00601
Oligonucleotide = GAGAGTGA; result = -0.0584
Oligonucleotide = ATCATCAT; result = 0.295

Some of these lines once more (study 2):
partner = ARF6 790-935 (Arabidopsis thaliana, UniProt Q9ZTX8); reference = out of 4 tests; result = 3
partner = ARF14 497-605 (Arabidopsis thaliana, UniProt Q9LQE8); reference = out of 4 tests; result = 0
partner = IAA8 (Arabidopsis thaliana, UniProt Q38826); reference = out of 4 tests; result = 4
partner = ARF11 500-622 (Arabidopsis thaliana, UniProt Q9ZPY6); reference = out of 4 tests; result = 0
partner = IAA18 (Arabidopsis thaliana, UniProt O24408); reference = out of 2 tests; result = 2
partner = IAA34 (Arabidopsis thaliana, UniProt Q9C5X0); reference = out of 2 tests; result = 2
